# Published values pooled from the literature.
# Numbered parts are unrelated; each lists some results of a single study.

# Set 1 — method: RNA Bind-n-Seq; form: RNA; sample: in vitro; concentration: 365 nM; baseline: no-protein control; reading: higher = stronger binding
# Target: RNA binding protein fox-1 homolog 2, RRM domain, GST-SBP tag (RBFOX2, Homo sapiens, UniProt O43251-10, residues 100-194)
# Notes: natural RNA segment, single round, ends assumed
# Target sequence (chain): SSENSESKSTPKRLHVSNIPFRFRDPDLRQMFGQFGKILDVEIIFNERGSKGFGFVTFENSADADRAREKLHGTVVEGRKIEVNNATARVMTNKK
Sequence,RBNS enrichment (R)
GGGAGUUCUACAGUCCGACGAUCUGGGGGCAGGAGGUAAAGAAACAUCUUAGAGAAAUCCACUUUACUAUCAAGUUCACAACCAGUUUUAUAUUCGAAACGCUUGGAGUCAGCCAGCCAGCCACAUGCAGCUUUGGAAUUCUCGGGUGCCAA,0.514
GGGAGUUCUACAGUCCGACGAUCGUAAUGUAUUCAAAAUUGUCAGUGUGGUGGCAUCAAAUAUGUAGAGAUGGUCUUUCUGUGGAGAAUUUGUGGAACUUUAGUGUGGAGAACAAAGAAGGAGUUGGAGAUGAUGGAAUUCUCGGGUGCCAA,1.62
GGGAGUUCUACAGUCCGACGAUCGGGGGACUGCCUGACUCCCAGAGGGACUUGAAACUGAAGCAAGAAGGUUGCAUUCUCCACCAAGGGAGUUAACCUACCUGAACUAAGUAGAAAUGCCAGUCUUCCACUACUGGAAUUCUCGGGUGCCAA,0.308
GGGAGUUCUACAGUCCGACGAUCGAAUGCGGUCCACCUUUCUAUGUACUCUAGCUUCCCUCUCUUCAGGUUGAUAUAGCGACAUUACCUGGGCUCUGUGCUGUCCUGUGGGUGGAGGCCAUUAUCACUGGGCUUGGAAUUCUCGGGUGCCAA,0.546
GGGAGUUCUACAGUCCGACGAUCGCCCUUCCUCUCCCACAUUAUUUCUUAAUCUGAACAUGAAGGCUCCAUUAGCAACACUAAAACUUGAUCAUUAACAGCCCCCUGUGCAUAUGAGUGGAUCAAACCGGUUCUGGAAUUCUCGGGUGCCAA,0.824
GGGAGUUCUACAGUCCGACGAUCGGCCUCUGAGGUCACCUUCCCUUCCGGCCUGCUUGCUUUGUCUUACAAGACUUCUUGGCUUUUCCAAAGACAGAGAUUUCUGGGGGGAAGCCGAAUAUUUCUACCUAAACUGGAAUUCUCGGGUGCCAA,0.777
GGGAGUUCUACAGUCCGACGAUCCUUCCCCAGGGAUCUGGGGAAGACCAGAGCUUGCAGCUCUGCCUGCUUUGAUCCAUAUUUCUCACAGUGCUGUAUUAAAAAAUAGAACCUAAGGCAGAUAGCCACCUUUAUGGAAUUCUCGGGUGCCAA,0.338
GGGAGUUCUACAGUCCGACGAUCUAGCAAUAGCAGCCCCAUCUACCCUUUGAGUCCUCAACUAAACACCAGUGGGAAGAGAACCGUUCCAUCCUCUGGUGUUAACGCCUUAAUGUCCCCAGUAUUUACUAUGAUGGAAUUCUCGGGUGCCAA,0.481
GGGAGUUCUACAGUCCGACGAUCUUGGAUUUAUCGCAAAAACUGAAGGUUUGCGCAAGAGACGAGGACAGCGGAAAGUGGACCUGCCAGGCCGGGAGUGUGUCCCUCACCAACUAUGCACACAGCACUCGCUCUGGAAUUCUCGGGUGCCAA,0.522
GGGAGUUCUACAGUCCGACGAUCGGUCCCUUGCAGCUAGUUUUCUAGAAUUUAUCACACUUCUGUGAGACCCCCACACCUCAGUUCCCUUGGCCUCAGAAUUCACAAAAUUUCCACAAAAUCUGUCCAAAGGAUGGAAUUCUCGGGUGCCAA,0.585
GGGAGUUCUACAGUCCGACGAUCGGGCCAUGGGAGGUCCUGGCUAGAGUUCUGCCCAACCUUGACCAACCCCAGCAAUUUUUCCAAAAGCCAGUCAAGGGCAUUACAUUUGUUCCUGGGACUGGCAGCUGGGCUGGAAUUCUCGGGUGCCAA,0.243
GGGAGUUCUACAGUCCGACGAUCCUGAGCUUUGGUUUUUAGAAAUAAAGUGCAUGAAUUGCUGCUAUGCUGUAUCCUAGUAUCCCAGUGAAACUCUGAGUUGGAAUGAUUCCCUCUGGUCCUGCAUAUGCAGAUGGAAUUCUCGGGUGCCAA,20

# Set 2 — method: RNA Bind-n-Seq; form: RNA; sample: in vitro; concentration: 20 nM; notes: 6-mer, flanks averaged, single round; together with: 150 mM KCl; baseline: input library; reading: higher = stronger binding
# Target: TAR DNA-binding protein 43, full length, His tag (TARDBP, Homo sapiens, UniProt Q13148, residues 1-414)
Sequence,6-mer enrichment (R)
CGUAUC,0.589
CACUCG,0.631
AUAGAA,0.734
UGGGGC,3.8
AGGCGA,1.49
GUCUAU,0.614
AUUAAG,0.652
UUGACG,0.797
AAGAUA,0.621
AGUGAC,0.815
UCGCAG,0.858
GGAAAU,0.963
AUACGG,0.965
CAAAGA,0.661
UCGGCA,0.834
GGAAUG,1.8
CUGCCG,0.809
AUUUCC,0.57
GAAUUA,0.665
CUUGAC,0.727
GAUUCA,0.609
GAGUUU,0.785
UGCAGC,0.86
UGGACC,0.842
AGUAGC,0.813

# Set 3 — method: protein-binding microarray; form: double-stranded DNA, one strand shown; sample: in vitro; concentration: 2540 nM top; notes: 60-bp whole probe; together with: salmon DNA 0.4 mg/ml; baseline: random background probes; reading: higher = stronger binding; all sequences stand within: GCCTAGCAC … GTCTTGATTCGCTTGACGCTGCTG
# Target: Interferon regulatory factor 3, full length, phosphomimetic (IRF3, Homo sapiens, UniProt Q14653, residues 1-427, S386D/S396D/S398D/S402D/T404D/S405D)
# Residues (chain): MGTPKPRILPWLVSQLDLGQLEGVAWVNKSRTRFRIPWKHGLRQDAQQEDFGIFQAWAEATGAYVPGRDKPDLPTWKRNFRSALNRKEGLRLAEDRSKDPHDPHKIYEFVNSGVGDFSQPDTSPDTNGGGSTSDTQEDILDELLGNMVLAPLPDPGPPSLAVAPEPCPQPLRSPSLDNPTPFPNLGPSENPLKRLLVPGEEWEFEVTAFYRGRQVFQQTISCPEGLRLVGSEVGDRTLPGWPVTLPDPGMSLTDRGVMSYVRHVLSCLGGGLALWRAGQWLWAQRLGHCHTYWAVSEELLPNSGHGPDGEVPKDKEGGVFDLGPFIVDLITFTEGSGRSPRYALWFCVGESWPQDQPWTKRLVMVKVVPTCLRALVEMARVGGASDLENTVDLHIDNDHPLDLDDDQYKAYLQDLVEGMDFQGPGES
Sequence,fitted relative affinity [z-score]
TTAGTTCTCAGTCTCGATTAGTGCTAG,1.43
TCATCATTGCATATAGAACTGTGCTAG,0.175
TTAGGTATCGACTATCGGTTGGTGCTA,0.312
TCAGTTCTCCCTTTCAGACTGTGCTAG,3.88
TTTGGTCTCGGTATCGGTTAGTGCTAG,2.56
AACGGTTTCGACTTTCGGGACGTGCTA,3.87
TCAAATTTCTTCCTCCCACTGTGCTAG,0.343
TCAGTTTCTCCTTTGTAACTGTGCTAG,3.29
TTAGATCTCAAACTGGATTAGTGCTAG,-0.0011
GACGGTTTCCCACTGCTGACGTGCTAG,4.93
TCACCACTCATGCCTCTTACTGTGCTA,-0.0523
TCATGCTTTCCTTTATGACTGTGCTAG,4.2
TCAAATATTCATTTTATACTGTGCTAG,1.06
GACGGTATCGATACTGGGGACGTGCTA,2.48
TTATATTTCAGTTTCGATTAGTGCTAG,5.34
GACGGTTTCGTTATCCTGACGTGCTAG,6.17
TTAGGATTGCTTTTCCTTTAGTGCTAG,2.15
TTAGGTATCGTCTTTCGGTTAGTGCTA,1.41
TTAGGTATCGGACTCGGTTAGTGCTAG,2.8
GGCGATTTCGGGTATCGAGACGTGCTA,1.64
TCAACTTTCCATTTCTGACTGTGCTAG,6.44
TCATTTTTGCTTACGATACTGTGCTAG,1.58
TTAGGTCTCGGTTTCGGTCAGTGCTAG,4.12
GACGGTTTCGACTTTCGGGACGTGCTA,4.12
TTAGGTTTCGACACAGGGTTAGTGCTA,2.09

# Set 4 — method: RNA Bind-n-Seq; form: RNA; sample: in vitro; concentration: 200 nM; notes: whole 134-nt RNA, ends assumed; together with: 150 mM KCl; baseline: input library; reading: higher = stronger binding
# Target: Ras GTPase-activating protein-binding protein 1, full length (G3BP1, Homo sapiens, UniProt Q13283)
# UniProt Q13283, sequence (whole entry, looked up): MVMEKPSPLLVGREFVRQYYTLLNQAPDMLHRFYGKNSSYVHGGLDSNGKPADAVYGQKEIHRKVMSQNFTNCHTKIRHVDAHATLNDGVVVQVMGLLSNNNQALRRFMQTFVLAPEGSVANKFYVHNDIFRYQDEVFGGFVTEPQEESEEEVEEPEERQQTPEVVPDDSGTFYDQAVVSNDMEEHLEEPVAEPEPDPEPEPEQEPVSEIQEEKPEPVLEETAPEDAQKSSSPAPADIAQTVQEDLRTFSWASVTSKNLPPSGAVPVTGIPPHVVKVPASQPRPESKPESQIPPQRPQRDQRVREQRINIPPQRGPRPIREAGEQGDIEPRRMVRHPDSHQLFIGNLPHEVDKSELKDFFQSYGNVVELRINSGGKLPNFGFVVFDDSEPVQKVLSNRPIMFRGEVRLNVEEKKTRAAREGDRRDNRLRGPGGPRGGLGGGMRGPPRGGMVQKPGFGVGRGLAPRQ
Sequence,log2 enrichment
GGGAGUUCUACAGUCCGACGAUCGCAGGAAGUAAAAACAAAGGGAAAUGCUUCGGAUAGUGGCAGGGGUGGGGGUUGCUAAGGAAAGGGUGGGAUGGGAGUGGGUAAAGAGUUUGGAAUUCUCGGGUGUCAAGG,1.31
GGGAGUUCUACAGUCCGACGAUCGUCCUGUGCUACACAUCGUAUGUACCGAAUCGGGGUUUUUUUGGGGAGGGGAAAGGGGAAAGUAUUAUGUUACGCCGUUCGGAUCUGCACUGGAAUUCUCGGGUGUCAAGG,0.362
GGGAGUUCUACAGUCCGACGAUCGUCCUGUGCUACACAUCGUAUGUACCGAAUCGGUUUUUUGGUUUUUUGGGUUUUUUGGAAAGUAUUAUGUUACGCCGUUCGGAUCUGCACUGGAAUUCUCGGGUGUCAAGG,-1.18
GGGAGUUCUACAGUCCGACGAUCCCUGUGCUACACAUCGUAUGUACCGAAUCGGGUUUUUUUGGGUUUUUGGGUUUUUUUGGGAAAGUAUUAUGUUACGCCGUUCGGAUCUGCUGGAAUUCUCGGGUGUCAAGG,-0.758
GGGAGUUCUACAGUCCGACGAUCUCCUGUGCUACACAUCGUAUGUACCGAAUCGGCCCCCCGGGGCCCCCCGGCCCCCCGGGAAAGUAUUAUGUUACGCCGUUCGGAUCUGCAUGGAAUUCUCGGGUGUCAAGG,-0.911
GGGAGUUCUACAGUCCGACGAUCAGUCCUGUGCUACACAUCGUAUGUACCGAAUCGGGUUUUUUUGGGAAAAAGGGAGGGAAAGUAUUAUGUUACGCCGUUCGGAUCUGCACUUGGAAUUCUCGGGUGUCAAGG,-0.0219
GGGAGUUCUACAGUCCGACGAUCCAAGUCCUGUGCUACACAUCGUAUGUACCGAAUCGGUUUUUGGAGGAAAAAAAGGAAAGUAUUAUGUUACGCCGUUCGGAUCUGCACUUCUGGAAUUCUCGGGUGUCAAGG,-0.554
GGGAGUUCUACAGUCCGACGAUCCACAGACAACACGCACCCACACAGACACAGAGGGAAGGGGUUGGGAUGGGGACAGGGUGCACAGCAGGGCGGGGCAGGACCCCAGCCCCUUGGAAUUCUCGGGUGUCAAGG,1.82
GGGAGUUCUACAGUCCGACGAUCUGCAGACGGGGAACCUGCUGAACUGGGGCCGCCUGCGGAAGAAGUGCCCGUCCACGCACAGCGAGGAGGUGAGCGUGGCGACACUCGCCGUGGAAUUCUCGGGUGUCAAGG,-2.17
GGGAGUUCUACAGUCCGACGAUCUCCUGUGCUACACAUCGUAUGUACCGAAUCGGGGUUUGGGGAAAAAGGGGUUUUUGGGGAAAGUAUUAUGUUACGCCGUUCGGAUCUGCAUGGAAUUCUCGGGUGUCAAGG,0.696

# For quick reference, copied from above (set 3):
Sequence,fitted relative affinity [z-score]
GACGGTTTCGACTTTCGGGACGTGCTA,4.12
TCATTTTTGCTTACGATACTGTGCTAG,1.58
GACGGTTTCGTTATCCTGACGTGCTAG,6.17
TTAGGTATCGACTATCGGTTGGTGCTA,0.312
